Measurements of several laboratories.
Each numbered part is a random draw from the data of one study; scales do not carry over between parts. Changes are numbered by the printed parent chain.

Study 1 — method: RNA Bind-n-Seq; molecule type: RNA; matrix: in vitro; tested at: 200 nM; setting: whole 134-nt RNA, ends assumed; added: 150 mM LiCl; baseline: input library; direction: higher = stronger binding; all molecules: 7-deaza-guanosine replaces G
Target: Ras GTPase-activating protein-binding protein 1, full length (G3BP1, Homo sapiens, UniProt Q13283)
Oligonucleotide | log2 enrichment
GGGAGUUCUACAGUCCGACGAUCCACAGACAACACGCACCCACACAGACACAGAGGGAAGGGGUUGGGAUGGGCACAGGGUGCACAGCAGGGCGGGGUAGGACCCCAGCCCCUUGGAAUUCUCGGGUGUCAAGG | 0.388
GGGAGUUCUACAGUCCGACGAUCUCCCAAUGCUCGGAGGAAGCCCAAGGGCAGCCCUCGUGUACCUGAUGCCAAGAAGCCUAAACCCAAGAAAGUAGCUCCCCUGAAAAUCAAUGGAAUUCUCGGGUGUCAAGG | 1.43
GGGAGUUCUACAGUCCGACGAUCUCCUGUGCUACACAUCGUAUGUACCGAAUCGGGAAAAAAGGGAAAAAAGGGAAAAAAGGAAAGUAUUAUGUUACGCCGUUCGGAUCUGCAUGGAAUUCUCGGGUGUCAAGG | 0.0261
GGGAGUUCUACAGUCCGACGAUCUGGGAGGUGGAUUUUGUUUAUUUUUUUAGCUCAUUUCCAGGGGUGGGAAUUUUUUUUUAAUAUGUGUCAUGAAUAAAGUUUUUUUUGAAAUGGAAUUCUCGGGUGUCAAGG | -0.122
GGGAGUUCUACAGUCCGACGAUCCACAGACAACACGCACCCACACAGACACAGAGGGAAGGGGUUGGGAUGGGGACAGGGUGCACAGAAAGGCGGGGUAGGACCCCAGCCCCUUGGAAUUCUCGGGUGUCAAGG | -0.372
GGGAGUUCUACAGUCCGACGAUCAAGUCCUGUGCUACACAUCGUAUGUACCGAAUCGGGGAGGGGAAAAAGGGGAGGGGAAAGUAUUAUGUUACGCCGUUCGGAUCUGCACUUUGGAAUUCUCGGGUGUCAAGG | 0.73
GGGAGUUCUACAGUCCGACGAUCGUCCUGUGCUACACAUCGUAUGUACCGAAUCGGGUUUUUGGGUUUUUGGUUUUUGGGGAAAGUAUUAUGUUACGCCGUUCGGAUCUGCACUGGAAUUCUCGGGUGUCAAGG | -0.83
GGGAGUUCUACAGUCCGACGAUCCCUGUGCUACACAUCGUAUGUACCGAAUCGGGUUUUUUUGGGUUUUUGGGUUUUUUUGGGAAAGUAUUAUGUUACGCCGUUCGGAUCUGCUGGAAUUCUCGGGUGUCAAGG | 0.153
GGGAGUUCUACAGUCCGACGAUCUGGCCCUGGUGGCAUGCGGGGAGGAAGAGGUGGCCUCAUGGAUCGUGGUGAUCCCGGUGGAAUGUUCAGAGGUGGCCGUGGUGGAGACAGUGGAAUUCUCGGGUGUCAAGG | 0.0462
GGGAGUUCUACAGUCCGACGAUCCCAUAGACCCCUUUCUUCUCCCCUUCCCCACGGUAGGAACAUAGCGUGUUUAUAUUUUAUGGCCAAACUAUUUUGAAUUUUGUUGUCCGGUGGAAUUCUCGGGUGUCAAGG | -0.109
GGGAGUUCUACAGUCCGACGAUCUCAAGUCCUGUGCUACACAUCGUAUGUACCGAAUCGGUUUUUGGAAAGGUUUGGAAAGUAUUAUGUUACGCCGUUCGGAUCUGCACUUCCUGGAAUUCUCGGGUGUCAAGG | -1.19

Study 2 — method: RNA Bind-n-Seq; molecule type: RNA; matrix: in vitro; tested at: 365 nM; baseline: no-protein control; direction: higher = stronger binding
Target: RNA binding protein fox-1 homolog 2, RRM domain, GST-SBP tag (RBFOX2, Homo sapiens, UniProt O43251-10, residues 100-194)
Setting: natural RNA segment, single round, ends assumed
Construct (chain): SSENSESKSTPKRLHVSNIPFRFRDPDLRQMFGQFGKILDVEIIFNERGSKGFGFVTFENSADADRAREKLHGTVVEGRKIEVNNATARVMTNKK
Oligonucleotide | RBNS enrichment (R)
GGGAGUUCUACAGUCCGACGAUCAGAGAGAGGGGUGUUUGUGUGUAUAUAUAUAUGCCUUUGUGUAUACACUUAUCAAAGCUAUUUUCUUAUGAAAACGUCCCUCUCUCCAUACCAUCAGUUUCUCAGUUCCAUGGAAUUCUCGGGUGCCAA | 0.376
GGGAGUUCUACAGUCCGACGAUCUGGGUGACAGAUUGGUCAUUUAUUUAAAUAAAGUUAAUACAGAUUAAAUUUGUUUCAAGAGCUAUUGAAUUUUCAAAUUUUCAGUGUAUUUAUAACUUUUAAGAACAUGAUGGAAUUCUCGGGUGCCAA | 0.611
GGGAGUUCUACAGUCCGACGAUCCCCCAAGUCCAGUACCUCUGGUAAAGUGGACUUCUUCCCCCAUCCCUAGAACCAGGGACCUAGAAACCACCAUUGGAAAGUCCCCAGGGAAUGGAAUACAGAGCCCAAGCUGGAAUUCUCGGGUGCCAA | 0.38
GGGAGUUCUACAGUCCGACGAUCUUAUUGCCUUCUCACCAGCUGCAAAGUGUUUUGUACCAGUGAGUUUUUGCAAUAAUGCAGUAUGGUACAUUUUUCAAAUUUGAAUAAAGAAUACUUGAACUUGUUGUUGAUGGAAUUCUCGGGUGCCAA | 0.303
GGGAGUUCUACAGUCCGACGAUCCCUGUCUGGCCGGGCCGCACUUGUGGCCCCCGGGACCCCACCUCUGGCCCCACCUCCCUCAAGUCUGCGCCCCGUCCCCAGCCAGACCCACUCGCUGCCGGGACCCUUUCUGGAAUUCUCGGGUGCCAA | 0.377
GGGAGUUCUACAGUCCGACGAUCUUUGAAAUUAGGUUAGAUAUACAUUUUUAAAUUUAACAUCUGGCUGGACAGUGUUCUAUUAACUCAUUGAAUGUGUUUCCUUUGUCUUGUGUUAAUAAAUAUUGAUGCUUUGGAAUUCUCGGGUGCCAA | 1.04
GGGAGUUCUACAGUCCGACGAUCUGUGGGAUCAGGGGACUGGAGUCACUGUGUCUACACCACCAGCUUCUAGAGGAAUUUGGUCUAUGCUUGUCCACCAGGCUACCAGCUAGGGCUCUAGAGAAAGCAGCUAGUGGAAUUCUCGGGUGCCAA | 0.917
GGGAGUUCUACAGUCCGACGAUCGUAUAUAAUUUGGUUGGUAUUUCACUAUUUAAUUUUUAAGAAGCCUAUUUUACUAGUGUUUUAUAUGAACAAAGUACUGCAGAAGUUAAACCUGUGUUGUAUUUUUUCUGUGGAAUUCUCGGGUGCCAA | 0.63
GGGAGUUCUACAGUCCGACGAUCGCGUGUGCACAUAUGUGUGCACACAUGUGCGUGUGUGUGUUCAUGUGUGUGCAUGCUUGUGUCUUUCCACAGCUUUUUUUUUUUUUUUAAGGAUCAUCCUACUGCUAAGUUGGAAUUCUCGGGUGCCAA | 0.678
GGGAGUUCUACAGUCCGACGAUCCCGAAGAAGGGUCCUUCCCUCUCCCCAAGACUUGGUGUCCUUUCCCUCCACUCCUUCCUGCCACCUGCUGCUGCUGCUGCUGCUAAUCUUCAGGGCACUGCUGCUGCCUUUGGAAUUCUCGGGUGCCAA | 0.576
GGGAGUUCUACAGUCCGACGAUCAGAGCCCCUGCAACUGUUAUCCACAUACAACAGGGAUAUCGGACUGCUUUCUUCUUCCGGCUGGUACAGAAUCUGUGUCCAUCAUUUUUCACUACAGGUCUUGUUAAAAUUGGAAUUCUCGGGUGCCAA | 0.532
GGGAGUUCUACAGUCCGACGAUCUUGUCUCCCCGCUGAAAAGAACAGGAUUCAAGUCCAGAGUUUUCAUCUUCAGCCUGUGAUCUGUCCAGGGACCCUUGGGAUCUGGGGCUUCCUGGCCUGGCCAGAGCUGGUGGAAUUCUCGGGUGCCAA | 0.208

Study 3 — method: RNA Bind-n-Seq; molecule type: RNA; matrix: in vitro; tested at: 20 nM; setting: 6-mer, flanks averaged, single round; added: 150 mM KCl; baseline: input library; direction: higher = stronger binding
Target: TAR DNA-binding protein 43, full length, His tag (TARDBP, Homo sapiens, UniProt Q13148, residues 1-414)
Oligonucleotide | 6-mer enrichment (R)
AAAAAC | 0.786
GACCAU | 0.685
UUGCUU | 0.645
GUUAUG | 0.906
ACUCCA | 0.614
GACGUU | 0.75
UUCUUC | 0.545
AUUCUC | 0.533
CCGCGA | 0.795
UAAGUG | 0.964
AACUUC | 0.572
ACAAAC | 0.624
UGUAGC | 0.857
AAGUUU | 0.611
ACAAUA | 0.895
CUUCGG | 0.815

Study 4 — method: DHFR PCA, deep sequencing; matrix: yeast; added: (+)-ABA 4.8 µM; baseline: wild-type fitted maximum; direction: higher = stronger binding
Target: ABI1, truncated, D143A, DHFR fusion (Arabidopsis thaliana)
Setting: methotrexate growth selection, single substitutions
Starting sequence: PYL1, truncated, DHFR fusion (Arabidopsis thaliana); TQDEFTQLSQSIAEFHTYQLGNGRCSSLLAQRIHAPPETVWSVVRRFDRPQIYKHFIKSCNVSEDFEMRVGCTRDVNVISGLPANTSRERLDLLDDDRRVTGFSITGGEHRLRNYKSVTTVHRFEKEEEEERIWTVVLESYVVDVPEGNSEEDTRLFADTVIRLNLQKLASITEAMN
Variant | relative binding score [%]
P36A | 59.8
E4V | 77
R69K | 80.2
W134R | 42.8
R113Q | 87.3
T119H | 2.24
H110Q | 13.6
G21C | 64.8
V100T | 14
V100F | 5.55
N165K | 1.26
P37V | 63.5
F157C | -4.38
G108I | -5.46
G148E | 40

Study 5 — Sequence: B1 (ZNRF3 RING domain); method: yeast two-hybrid; matrix: yeast; setting: mostly zero background; baseline: not given; direction: higher = stronger interaction
B1: ZNRF3 RING domain (UniProt Q9ULT6); chain DTLSSSSTSDCAICLEKYIDGEELRVIPCTHRFHRKCVDPWLLQHHTCPHCRHNIIEQKGNP
target | lacZ reporter activity
UBE2B UBC core domain (UniProt P63146) | 0
UBE2O UBC core domain (UniProt Q9C0C9) | 0
UBE2S UBC core domain (UniProt Q16763) | 0
UBE2Q1 UBC core domain (UniProt Q7Z7E8) | 0
UBE2J1 UBC core domain (UniProt Q9Y385) | 0
UBE2J2 UBC core domain (UniProt Q8N2K1) | 0
UBE2Z UBC core domain (UniProt Q9H832) | 0
UBE2I UBC core domain (UniProt P63279) | 0
UBE2C UBC core domain (UniProt O00762) | 0

Repeated from above (study 3):
Oligonucleotide | 6-mer enrichment (R)
UGUAGC | 0.857
CUUCGG | 0.815
AACUUC | 0.572
GUUAUG | 0.906
